Measurements pooled from the literature.
Each line is one published result; not all experiments were run side by side.
Organism: Staphylococcus aureus

| SMILES | test | test system | setting | scale | MIC |
| --- | --- | --- | --- | --- | --- |
| CC(C)=CCc1cc([C@@H]2CC(=O)c3c(O)cc(O)c(CC=C(C)C)c3O2)cc(CC=C(C)C)c1O | – | ATCC 25923 | – | – | 128 µg/mL |
| CN(C)c1cc(CN2CCCC2)c(O)c2c1C[C@H]1C[C@H]3[C@H](N(C)C)C(O)=C(C(N)=O)C(=O)[C@@]3(O)C(O)=C1C2=O | – | MRSA 5, Tet M ribosome protection | – | – | 2 µg/mL |
| CNC(CC(C)C)C(=O)NC1C(=O)NC(CC(N)=O)C(=O)NC2C(=O)NC3C(=O)NC(C(=O)NC(C(=O)O)c4cc(O)cc(O)c4-c4cc3ccc4O)C(O)c3ccc(c(Cl)c3)Oc3cc2cc(c3OC2OC(CO)C(O)C(O)C2OC2CC(C)(NC(=O)CCCCCCCC[N+]3(C)CCOCC3)C(O)C(C)O2)Oc2ccc(cc2Cl)C1O (stereo not shown) | agar dilution | MRSA clinical isolate MRSA3 | – | – | 512 µg/mL |
| CCCCCCCCCc1nc2cc(F)c(F)cc2c(=O)n1OC | broth microdilution | RN6390B | – | – | > 100 µM |
| c1ccc(CN2CCOCCOCCN(CCCCCCCCCCN3CCOCCOCCN(CCCCCCCCCCN4CCOCCOCCN(Cc5ccccc5)CCOCCOCC4)CCOCCOCC3)CCOCCOCC2)cc1 | microbial growth | MRSA USA100 | drug-resistant strain | – | 6 µM |
| CN(C)c1cc(CNC2CCCC2)c(O)c2c1C[C@H]1C[C@H]3[C@H](N(C)C)C(O)=C(C(N)=O)C(=O)[C@@]3(O)C(O)=C1C2=O | microbial growth, broth dilution | – | – | – | 0.5 µg/mL |
| CC(C)C[C@H](NC(=O)[C@H](CC(C)C)NC(=O)[C@H](CCCCN)NC(=O)[C@@H]1CCCN1C(=O)[C@H](CC(C)C)NC(=O)[C@H](CC(C)C)NC(=O)[C@H](CCCCN)NC(=O)[C@H](CC(C)C)NC(=O)[C@H](CC(C)C)NC(=O)[C@H](CO)NC(=O)CNC(=O)[C@H](Cc1ccccc1)NC(=O)[C@@H](N)Cc1ccccc1)C(N)=O | broth microdilution | USA300 MRSA | – | – | 0.78 to 1.56 µM |
| COc1ccccc1C(=O)c1[nH]c(Cl)c(Cl)c1-n1c(C(=O)c2ccccc2OC)cc(Cl)c1Cl | microbial growth, broth dilution | NCTC8325 | 20 h | – | 8 µg/mL |
| CCN(CC)CCCN1/C(=C/c2cc[n+](C)c3ccccc23)Sc2ccccc21 | microbial growth, broth dilution | ATCC43300 MRSA | – | – | 8 µg/mL |
| CCCCCCCCCCCC[S+]([O-])CC1OC(OC2C(N)CC(N)C(OC3OC(CN)C(O)CC3N)C2O)C(O)C(N)C1O (mixture of isomers) | – | methicillin-resistant | – | – | 75 µg/mL |
| CCC1(C)CCN(Cc2cc(N(C)C)c3c(c2O)C(=O)C2=C(O)[C@]4(O)C(=O)C(C(N)=O)=C(O)[C@@H](N(C)C)[C@@H]4C[C@@H]2C3)CC1 | – | MRSA 5, Tet M, 50% human serum | – | – | 32 µg/mL |
| CCCCCCCCCCCN1C(=O)/C(=N\NC(=N)N)c2cc(C)ccc21 | microbial growth, broth dilution | – | 18 h | – | 6 µg/mL |
| CN(Cc1cc(N(C)C)c2c(c1O)C(=O)C1=C(O)[C@]3(O)C(=O)C(C(N)=O)=C(O)[C@@H](N(C)C)[C@@H]3C[C@@H]1C2)CC(C)(C)C | – | MRSA 5, Tet M, 50% human serum | – | – | > 64 µg/mL |
| Oc1c(Br)cc(Br)c2nc3cc(Cc4ccccc4)ccc3nc12 | broth microdilution | MRSA 44 | – | – | 0.2 µM |
| O=C(CCc1cc(O)c(O)c(O)c1)NCCCCCCCCCC[P+](c1ccccc1)(c1ccccc1)c1ccccc1 | microbial growth, broth dilution | ATCC43300 MRSA | 18 h | – | < 0.25 µg/mL |
| CN(C)c1cc(CNC(=O)C(C)(C)C)c(O)c2c1C[C@H]1C[C@H]3[C@H](N(C)C)C(O)=C(C(N)=O)C(=O)[C@@]3(O)C(O)=C1C2=O | – | MRSA 5, Tet M ribosome protection | – | – | 16 µg/mL |

| SMILES | test | test system | setting | scale | MIC |
| --- | --- | --- | --- | --- | --- |
| CC(=O)c1ccc2c(c1)sc1nc(=O)c(C#N)cn12 | microbial growth, broth dilution | – | – | – | < 54 µg/mL |
| CN(C)c1cc(CNCc2ccccc2)c(O)c2c1C[C@H]1C[C@H]3[C@H](N(C)C)C(O)=C(C(N)=O)C(=O)[C@@]3(O)C(O)=C1C2=O | – | RN4250, Tet K efflux | – | – | 0.5 µg/mL |
| CC1C=CC=CC(C)C2C=CC3CC(C)(O)C(Br)C(C)C3C2C(=O)C(Cl)(Cl)C(=O)C(C)C(=O)O1 (stereo not shown) | microbial growth, broth dilution | NEWMAN | – | – | 0.05 µg/mL |
| CCn1cc(C(=O)NCCNCCO)c(=O)c2cc(OC)c(OCc3cccc(Br)c3)cc21 | – | ATCC 43300 MRSA | – | ≥80% growth inhibition | > 32 µg/mL |
| C=CCO[C@H]1[C@H](O)[C@@H](N)[C@@H](O[C@H]2[C@H](O[C@@H]3O[C@H](CO)[C@@H](O[C@H]4O[C@@H](CN)[C@@H](O)[C@H](O)[C@H]4N)[C@H]3O)[C@@H](O)[C@H](N)C[C@@H]2N)O[C@@H]1CO | broth microdilution | MRSA isolate AG 039 | – | – | 16 µg/mL |
| CCSC1COC(=O)N1/N=C/c1ccc([N+](=O)[O-])o1 (stereo not shown) | microbial growth, broth dilution | ATCC29213 | 18 h | – | 12.5 µg/mL |
| CC(C)C[C@H](NC(=O)[C@H](CC(N)=O)NC(=O)[C@H](CCCNC(=N)N)NC(=O)[C@@H](CC(C)C)NC(=O)[C@H](Cc1ccc(C(F)(F)F)cc1)NC(=O)[C@H](CC(=O)O)NC(=O)[C@H](CCCCN)NC(=O)[C@@H](CC(C)C)NC(=O)[C@H](CCCNC(=N)N)NC(=O)[C@H](CCC(N)=O)NC(=O)[C@@H](NC(=O)[C@@H](CC(C)C)NC(=O)[C@H](CCCNC(=N)N)NC(=O)[C@H](CCCCN)NC(=O)[C@H](Cc1ccc2ccccc2c1)NC(=O)CN)C(C)C)C(=O)N[C@H](C(N)=O)C(C)C | broth microdilution | USA300 LAC, MRSA | – | – | 6.2 µM |
| C=CCOC(=O)c1ccc(NC(=O)c2ccc(NC(=O)c3ccc(NC(=O)C(CC(N)=O)NC(=O)c4ccc(NC(=O)c5ccc([N+](=O)[O-])cc5)cc4)cc3)c(OC(C)C)c2OCC=C)cc1 (stereo not shown) | microbial growth | ATCC29213 | – | – | > 64 µg/mL |
| NC[C@@H]1O[C@H](O[C@H]2[C@@H](O)[C@H](O[C@@H]3[C@@H](O)[C@H](N)C[C@H](N)[C@H]3O[C@H]3O[C@H](CO)[C@@H](OCCO)[C@H](O)[C@H]3N)O[C@@H]2CO)[C@H](N)[C@@H](O)[C@@H]1O | broth microdilution | MRSA isolate AG 042 | – | – | 16 to 32 µg/mL |
| CNC(CC(C)C)C(=O)NC1C(=O)NC(CC(N)=O)C(=O)NC2C(=O)NC3C(=O)NC(C(=O)NC(C(=O)O)c4cc(O)cc(O)c4-c4cc3ccc4O)C(O)c3ccc(c(Cl)c3)Oc3cc2cc(c3OC2OC(CO)C(O)C(O)C2OC2CC(C)(NC(=O)CCCCCC[N+](C)(C)Cc3ccccc3)C(O)C(C)O2)Oc2ccc(cc2Cl)C1O (stereo not shown) | agar dilution | MRSA clinical isolate MRSA3 | – | – | 512 µg/mL |
| CC(CCCOC(=O)CCC[N+](C)(C)C)C1CCC2C3CCC4CC(OC(=O)CCC[N+](C)(C)C)CCC4(C)C3CCC12C (stereo not shown) | microbial growth, broth dilution | ATCC29213 | 16 h | – | < 0.5 µg/mL |
| Cc1cc([N+](=O)[O-])ccc1NC(=O)CSc1nc2ccccc2c(=O)n1-c1ccc(S(N)(=O)=O)cc1 | – | MRSA | 24 h, 37 °C | – | 5 µg/mL |
| CN(C)c1cc(CN2CCCCC2)c(O)c2c1C[C@H]1C[C@H]3[C@H](N(C)C)C(O)=C(C(N)=O)C(=O)[C@@]3(O)C(O)=C1C2=O | – | MRSA 5, Tet M, 50% human serum | – | – | 1 µg/mL |
| Oc1ccccc1C1Nc2ccccc2C2=[O+][Cu-2]3([Cl])[O]c4ccccc4C=[N+]3N21 (stereo not shown) | broth microdilution | ATCC 29213 | 24 h, 37 °C | – | 32 µg/mL |
| C[n+]1ccc(/C=C2\Sc3ccccc3N2CCCN2CCCC2)c2ccccc21 | microbial growth, broth dilution | ATCCBAA1720 MRSA | – | – | 16 µg/mL |

Some of these lines once more:
| SMILES | test | test system | setting | scale | MIC |
| --- | --- | --- | --- | --- | --- |
| COc1ccccc1C(=O)c1[nH]c(Cl)c(Cl)c1-n1c(C(=O)c2ccccc2OC)cc(Cl)c1Cl | microbial growth, broth dilution | NCTC8325 | 20 h | – | 8 µg/mL |
| CCn1cc(C(=O)NCCNCCO)c(=O)c2cc(OC)c(OCc3cccc(Br)c3)cc21 | – | ATCC 43300 MRSA | – | ≥80% growth inhibition | > 32 µg/mL |
